Measured values gathered from unrelated publications.
Parts stem from different laboratories: compare values within a part only.

Sample 1
Target: Interferon regulatory factor 5, full length, phosphomimetic (IRF5, Homo sapiens, UniProt Q13568-2, residues 1-514, K96S/S451D/S453D/S456D/S462D)
Technique: protein-binding microarray
Form: double-stranded DNA, one strand shown
Medium: in vitro
Tested at: 250 nM
Notes: 60-bp whole probe
With: salmon DNA 0.4 mg/ml
Baseline: random background probes
Direction: higher = stronger binding
All sequences stand within: GCCTAGCAC … GTCTTGATTCGCTTGACGCTGCTG
Sequence	log fluorescence [z-score]
GACGAACTGCGTTTCGAGACGTGCTAG	1.16
TTAGATTTCGGGTCTGGATTAGTGCTA	4.15
GACGGTATCGACACTGGTGACGTGCTA	1.91
TTAGGTTTCCACACTGGGTTAGTGCTA	0.389
GACGTTTTCCTTTCCCTGACGTGCTAG	1.63
ATGCCCCCCAAGAGGGGCGGGTGCTAG	-0.227
TCATGTCTCAGAGTCCTACTGTGCTAG	-0.207
TGAGGTTTCCTACTGCTTTAGTGCTAG	0.091
GACAATATCAGTTTCGAGACGTGCTAG	7.16

Sample 2
Target: Myc proto-oncogene protein, bHLH-zipper, MAX partner unstated (MYC, Homo sapiens, UniProt P01106, residues 368-449)
Sequence of UniProt P01106 (368-449, looked up): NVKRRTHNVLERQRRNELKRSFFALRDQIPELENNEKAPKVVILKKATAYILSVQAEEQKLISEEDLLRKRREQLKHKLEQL
Technique: protein-binding microarray
Form: double-stranded DNA, one strand shown
Medium: in vitro
Tested at: not given
Notes: k-mer, scored over probes, only values ≥0.25
Direction: higher = stronger binding
Sequence	E-score
ATGGTGCA	0.326
AGCCCCGC	0.255
CGCCACAC	0.36
GCACGACA	0.265
CGGGTGGC	0.313
CCCATGAG	0.313
CCGCCGCG	0.252

Sample 3
Target: Centromere-binding protein 1, full length, N-terminal tag (CBF1, Saccharomyces cerevisiae, UniProt P17106, residues 1-351)
Sequence of UniProt P17106 (whole entry, looked up): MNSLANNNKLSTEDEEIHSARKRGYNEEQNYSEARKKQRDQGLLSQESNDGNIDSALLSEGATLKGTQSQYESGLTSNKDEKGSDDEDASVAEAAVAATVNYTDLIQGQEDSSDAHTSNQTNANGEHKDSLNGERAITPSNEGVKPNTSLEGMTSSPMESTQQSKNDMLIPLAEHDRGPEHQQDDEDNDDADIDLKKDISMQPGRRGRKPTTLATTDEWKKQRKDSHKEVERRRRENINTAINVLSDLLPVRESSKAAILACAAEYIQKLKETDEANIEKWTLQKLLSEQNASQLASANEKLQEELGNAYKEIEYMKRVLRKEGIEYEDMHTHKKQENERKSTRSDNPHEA
Technique: protein-binding microarray
Form: double-stranded DNA, one strand shown
Medium: in vitro
Tested at: 0.8 µM
Notes: whole 60-bp probe, no competitor
Direction: higher = stronger binding
All sequences stand within: … GTCTTGATTCGCTTGACGCTGCTG
Sequence	fluorescence intensity
CCTAACTACTATACGCACACGTAATAGCTTCGTACA	499 a.u.
GAAGTTAGTAGTCTACACGTTACTAATTACGTGTAG	633 a.u.
CTATTTATAAGTTACATCACCTGTTTGCTGTTATTC	761 a.u.
CCTAACTACTATAATCACGGAAGATAGCTTCGTACA	535 a.u.
GAAAATGATTATGGGTGCGTGATCACCAATCTGTAG	1880 a.u.
GAATGGTTGTGATACAGCCACATGAACAGATTCTAG	632 a.u.
CTAAAGATCAAATCTCACATGTTTATCATTCATTTC	604 a.u.
CTAATCGAACTTTATCACCCGCAGCATAAAGTATTC	524 a.u.
TGTACGAAGCTATGGCACGTGGTTATAGTAGTTAGG	7020 a.u.
CCTAACTACTATAATCACGTCATATAGCTTCGTACA	615 a.u.
CTAACTATGGGTGCAGGTGAGGCGGTTTTTTAATTC	531 a.u.

Further values, each from its own experiment
Molecule	target	assay	test system	conditions	scale	endpoint	result
PhoQ, residues 284 288 289 292 302 303 NLALSC	PhoP, residues 12 14 15 18 19 NYFTV (Escherichia coli, UniProt P23836)	Sort-seq, item: YFP reporter	E. coli	PhoQ-PhoP variant library, with: 10 µM Mg2+	baseline: high Mg2+ state, higher = stronger signaling	fold induction	1.69

For quick reference, copied from above (sample 1):
Sequence	log fluorescence [z-score]
GACGAACTGCGTTTCGAGACGTGCTAG	1.16
TGAGGTTTCCTACTGCTTTAGTGCTAG	0.091
TTAGATTTCGGGTCTGGATTAGTGCTA	4.15
